Results pooled from the literature.
Each line is one published result; not all experiments were run side by side.
Effect on: metabolic stability
Species: human

c1cc(OCCN2CCOCC2)cc([C@H]2CCC[C@@]3(C2)OOC2(O3)C3CC4CC(C3)CC2C4)c1 (mixture of isomers)  microsomal CLint (liver microsomes): 57.2 µL/min/mg
C[C@]12CC[C@H]3[C@@H](CCC4=CC(=O)CC[C@@]43C)[C@@H]1CC[C@@H]2O  scaled CLint (hepatocytes; 1 µM): 176 mL/min/kg
O=C(CN1CN(c2ccccc2)C2(CCN(C(=O)c3cnc4[nH]ncc4c3)CC2)C1=O)NCC(F)(F)F  microsomal CLint (liver microsomes): 32 µL/min/mg
COc1cc2c(cc1NC(=O)c1cncn1C)C[C@H]1[C@H]3CCCC[C@@]23CCN1C  microsomal CLint (liver microsomes): 20.8 µL/min/mg
Cc1cc(-c2ccc3ccccc3c2)nnc1NCCN1CCN(C)CC1  microsomal CLint (liver microsomes): < 23.1 µL/min/mg
CCCCCn1ccc(C(=O)NC(C)(C)c2ccc(CNC(C)=O)cc2)n1  microsomal CLint (liver microsomes): 14 µL/min/mg
Cn1c(C(C)(C)C)c/c(=N\C(=O)c2cc(C(F)(F)F)ccc2OCC(C)(C)O)n1CC1CCC1  microsomal CLint (liver microsomes): ≤ 10 µL/min/mg
Cn1ccc([C@H](CO)Nc2nc(N3C[C@@H]4C[C@H]3CO4)c3cc(-c4ccccc4)oc3n2)n1  hepatocyte CLint (hepatocytes): 5 µL/min/10⁶ cells
CCc1nnc(-c2c(OC)cc(-c3cnc4cc(-c5cnn(C)c5)ccn34)cc2OC)o1  microsomal CLint (liver microsomes): < 9.6 µL/min/mg
[2H]c1nc([2H])c(-c2nc([2H])n3c2C([2H])([2H])N=C(c2ccccn2)c2cc(C#C)ccc2-3)o1  microsomal CLint (liver microsomes): 0.056 µL/min/mg
NC1CCN(C(=O)Oc2cccc([C@H]3CCC[C@@]4(C3)OOC3(O4)C4CC5CC(C4)CC3C5)c2)CC1 (some centres unmarked)  microsomal CLint (liver microsomes): < 11 µL/min/mg
CNC(=O)C[C@H](Cc1ccc(F)cc1)NC(=O)[C@@H](Cc1ccc(Cl)cc1Cl)NC(=O)[C@H](N)Cc1ccccc1C#N  microsomal CLint (liver microsomes; 1 µM): 697 µL/min/mg
c1ccc([C@H]2CCC[C@@]3(C2)OOC2(O3)C3CC4CC(C3)CC2C4)c(OCCN2CCOCC2)c1 (mixture of isomers)  microsomal CLint (liver microsomes): 282 µL/min/mg
O=C(CN1C(=O)C2(CCN(C(=O)c3ccc4[nH]ncc4n3)CC2)c2c(Br)cccc21)NCC(F)(F)F  microsomal CLint (liver microsomes): 10 µL/min/mg

Repeated from above:
CCc1nnc(-c2c(OC)cc(-c3cnc4cc(-c5cnn(C)c5)ccn34)cc2OC)o1  microsomal CLint (liver microsomes): < 9.6 µL/min/mg
